{"data": "Experimental data gathered from unrelated publications", "cell line": "HOP-62", "note": "Protocols differ between the studies behind these lines. “And” joins repeats or separate records; there may be more than shown."}
{"SMILES": "CCCN1CCN(c2ccc3[nH]c(-c4ccc5[nH]c(-c6ccc(C(F)(F)F)cc6)nc5c4)nc3c2)CC1", "test": "SRB", "conditions": "10 µM, 48 h", "endpoint": "growth percent", "result": "-62.6%"}
{"SMILES": "C#C[C@@]1(O)[C@@H](CO)O[C@@H](n2cc(I)c3c(N)ncnc32)[C@@H]1O", "test": "SRB", "conditions": "NCI-60 screen", "endpoint": "TGI", "result": "6.28 µM and 12 µM"}
{"SMILES": "Cc1cc2c(cc1C)[n+](Cc1ccc3ccccc3c1)cn2Cc1ccc2ccccc2c1.[Br-]", "test": "NCI60 five-dose screen", "endpoint": "TGI", "result": "2.47 µM"}
{"SMILES": "CCCCCCCCCCCCCCCCCCOc1ccc(CC(=O)OCC[N+]2(C)CCCC2)cc1", "test": "SRB", "conditions": "10 µM", "endpoint": "growth inhibition", "result": "< 0%"}
{"SMILES": "CCOC(=O)CSc1nc(-c2ccc(Cl)cc2)c2c(NC(=O)c3ccccc3)nnc-2[nH]1", "test": "SRB", "conditions": "10 µM, NCI60 single-dose screen", "scale": "relative to: untreated", "endpoint": "cell growth", "result": "89.5%"}
{"SMILES": "COCCOCCOCc1n(Cc2ccc3ccccc3n2)c2ccccc2[n+]1Cc1ccc2ccccc2c1.[Br-]", "test": "NCI60 five-dose screen", "endpoint": "TGI", "result": "2.52 µM"}
{"SMILES": "CCOc1ccc(-c2nc3cc(-c4nc5cc(N6CCN(C)CC6)ccc5[nH]4)ccc3[nH]2)cc1OCC", "test": "SRB", "conditions": "10 µM, 48 h", "endpoint": "growth percent", "result": "16.7%"}
{"SMILES": "Cc1cc(=O)[nH]n1-c1nc(-c2ccc(Cl)cc2)c2c(NC(=O)c3ccccc3)nnc-2[nH]1", "test": "SRB", "conditions": "10 µM, NCI60 single-dose screen", "scale": "relative to: untreated", "endpoint": "cell growth", "result": "85.5%"}
{"SMILES": "CCCC(CCC)C(=O)OCc1cn(-c2c3ccccc3nc3ccccc23)nn1", "test": "NCI60 single-dose screen", "conditions": "10 µM", "endpoint": "growth percentage", "result": "98.4%"}
{"SMILES": "CCCN1CCN(c2ccc3nc(-c4ccc5nc(-c6cc(OC)ccc6OC)[nH]c5c4)[nH]c3c2)CC1", "test": "SRB", "conditions": "10 µM, 48 h", "endpoint": "growth percent", "result": "117%"}
{"SMILES": "O=C(Nc1nnc2n3c(=S)[nH][nH]c3nc(-c3ccc(Cl)cc3)c1-2)c1ccccc1", "test": "SRB", "conditions": "10 µM, NCI60 single-dose screen", "scale": "relative to: untreated", "endpoint": "cell growth", "result": "64.6%"}
{"SMILES": "Cc1n(Cc2ccc3ccccc3c2)c2ccccc2[n+]1Cc1ccc2ccccc2c1.[Br-]", "test": "NCI60 five-dose screen", "endpoint": "TGI", "result": "3.24 µM"}
{"SMILES": "Cc1cc(=O)[nH]c(=O)n1Cc1cn(-c2c3ccccc3nc3ccccc23)nn1", "test": "NCI60 single-dose screen", "conditions": "10 µM", "endpoint": "growth percentage", "result": "95.6%"}
{"SMILES": "O=C(Nc1nnc2n3c(Cc4ccccc4)n[nH]c3nc(-c3ccc(Cl)cc3)c1-2)c1ccccc1", "test": "SRB", "conditions": "10 µM, NCI60 single-dose screen", "scale": "relative to: untreated", "endpoint": "cell growth", "result": "97%"}
{"SMILES": "CCCCCCCCCCCCCCCCCCOc1ccc(CC(=O)OCC[N+]2(C)CCCCC2)cc1", "test": "SRB", "conditions": "10 µM", "endpoint": "growth inhibition", "result": "< 0%"}
{"SMILES": "CCCCN1CCN(c2ccc3[nH]c(-c4ccc5[nH]c(-c6ccc(OCC)cc6)nc5c4)nc3c2)CC1", "test": "SRB", "conditions": "10 µM, 48 h", "endpoint": "growth percent", "result": "46.2%"}
{"SMILES": "CSc1nc(-c2ccc(Cl)cc2)c2c(NC(=O)c3ccccc3)nnc-2[nH]1", "test": "SRB", "conditions": "10 µM, NCI60 single-dose screen", "scale": "relative to: untreated", "endpoint": "cell growth", "result": "81.2%"}
{"SMILES": "CCCCN1CCN(c2ccc3nc(-c4ccc5nc(-c6cc(OC)ccc6OC)[nH]c5c4)[nH]c3c2)CC1", "test": "SRB", "conditions": "10 µM, 48 h", "endpoint": "growth percent", "result": "99.9%"}
{"SMILES": "S=C([S][Au-][P+](CCCCCC[P+]([Au-][S]C(=S)n1cccn1)(c1ccccc1)c1ccccc1)(c1ccccc1)c1ccccc1)n1cccn1", "test": "cell growth, NCI-60 screen", "conditions": "non-small cell lung cancer", "endpoint": "log10 TGI", "result": -4.37}
{"SMILES": "O=c1ccn(Cc2cn(-c3c4ccccc4nc4ccccc34)nn2)c(=O)[nH]1", "test": "NCI60 single-dose screen", "conditions": "10 µM", "endpoint": "growth percentage", "result": "97.7%"}
{"SMILES": "Cc1cc(C)n(-c2nc(-c3ccc(Cl)cc3)c3c(NC(=O)c4ccccc4)nnc-3[nH]2)n1", "test": "SRB", "conditions": "10 µM, NCI60 single-dose screen", "scale": "relative to: untreated", "endpoint": "cell growth", "result": "96.7%"}
{"SMILES": "CCCCN1CCN(c2ccc3[nH]c(-c4ccc5[nH]c(-c6cc(OC)c(OC)c(OC)c6)nc5c4)nc3c2)CC1", "test": "SRB", "conditions": "10 µM, 48 h", "endpoint": "growth percent", "result": "61.4%"}
{"SMILES": "C#C[C@@]1(O)[C@@H](CO)O[C@@H](n2cc(F)c3c(N)ncnc32)[C@@H]1O", "test": "SRB", "conditions": "NCI-60 screen", "endpoint": "TGI", "result": "7.79 µM"}
{"SMILES": "O=C1NC(c2ccccc2)(c2ccccc2)C(=O)N1Cc1cn(-c2cc3ccccc3oc2=O)nn1", "test": "NCI60 single-dose screen", "conditions": "10 µM", "endpoint": "growth percentage", "result": "77.1%"}
{"SMILES": "Cn1cncc1C1=CN(c2ncnc3[nH]cnc23)CCS1", "conditions": "lung cancer", "endpoint": "GI50", "result": "27.5 µM"}
{"note": "Excerpt of the above:"}
{"SMILES": "CCCCN1CCN(c2ccc3[nH]c(-c4ccc5[nH]c(-c6cc(OC)c(OC)c(OC)c6)nc5c4)nc3c2)CC1", "test": "SRB", "conditions": "10 µM, 48 h", "endpoint": "growth percent", "result": "61.4%"}
{"SMILES": "CCCCN1CCN(c2ccc3[nH]c(-c4ccc5[nH]c(-c6ccc(OCC)cc6)nc5c4)nc3c2)CC1", "test": "SRB", "conditions": "10 µM, 48 h", "endpoint": "growth percent", "result": "46.2%"}
